Published values pooled from the literature.
Several values in a cell are separate wells, animals, samples, runs or records. Numbers after ± are the reported error.
HTR2C: 5-hydroxytryptamine receptor 2C (HTR2C, Homo sapiens, UniProt P28335)
Chain of UniProt P28335 (whole entry, looked up): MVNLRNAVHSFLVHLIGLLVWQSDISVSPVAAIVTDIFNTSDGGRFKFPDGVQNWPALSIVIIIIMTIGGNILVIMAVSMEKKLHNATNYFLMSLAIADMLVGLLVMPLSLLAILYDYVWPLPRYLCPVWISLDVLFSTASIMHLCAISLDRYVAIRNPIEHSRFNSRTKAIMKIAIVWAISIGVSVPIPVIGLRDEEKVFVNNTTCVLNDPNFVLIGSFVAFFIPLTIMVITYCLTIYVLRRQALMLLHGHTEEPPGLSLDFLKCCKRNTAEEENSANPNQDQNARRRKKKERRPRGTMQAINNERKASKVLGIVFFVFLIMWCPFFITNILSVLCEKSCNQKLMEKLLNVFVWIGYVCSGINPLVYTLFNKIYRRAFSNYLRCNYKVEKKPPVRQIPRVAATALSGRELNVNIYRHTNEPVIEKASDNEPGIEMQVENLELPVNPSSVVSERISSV
STUB1: E3 ubiquitin-protein ligase CHIP (STUB1, Homo sapiens, UniProt Q9UNE7)
Chain of UniProt Q64663 (whole entry, unmodified, looked up): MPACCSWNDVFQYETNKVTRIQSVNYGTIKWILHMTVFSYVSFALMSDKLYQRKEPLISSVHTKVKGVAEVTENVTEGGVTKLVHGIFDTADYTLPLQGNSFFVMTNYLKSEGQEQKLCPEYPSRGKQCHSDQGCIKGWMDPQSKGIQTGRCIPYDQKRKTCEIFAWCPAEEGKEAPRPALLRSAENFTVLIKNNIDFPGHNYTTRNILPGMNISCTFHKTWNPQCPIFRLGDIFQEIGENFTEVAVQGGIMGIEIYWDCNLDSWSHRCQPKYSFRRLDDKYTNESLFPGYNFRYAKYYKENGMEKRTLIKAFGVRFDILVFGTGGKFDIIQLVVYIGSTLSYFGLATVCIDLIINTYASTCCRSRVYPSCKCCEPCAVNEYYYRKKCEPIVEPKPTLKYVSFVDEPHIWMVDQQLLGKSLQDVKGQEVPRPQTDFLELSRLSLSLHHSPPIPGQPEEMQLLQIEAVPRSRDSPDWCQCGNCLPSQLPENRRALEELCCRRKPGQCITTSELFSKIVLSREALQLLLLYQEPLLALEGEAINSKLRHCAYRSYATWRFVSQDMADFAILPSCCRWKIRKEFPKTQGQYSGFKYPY
Chain of UniProt Q62351 (whole entry, looked up): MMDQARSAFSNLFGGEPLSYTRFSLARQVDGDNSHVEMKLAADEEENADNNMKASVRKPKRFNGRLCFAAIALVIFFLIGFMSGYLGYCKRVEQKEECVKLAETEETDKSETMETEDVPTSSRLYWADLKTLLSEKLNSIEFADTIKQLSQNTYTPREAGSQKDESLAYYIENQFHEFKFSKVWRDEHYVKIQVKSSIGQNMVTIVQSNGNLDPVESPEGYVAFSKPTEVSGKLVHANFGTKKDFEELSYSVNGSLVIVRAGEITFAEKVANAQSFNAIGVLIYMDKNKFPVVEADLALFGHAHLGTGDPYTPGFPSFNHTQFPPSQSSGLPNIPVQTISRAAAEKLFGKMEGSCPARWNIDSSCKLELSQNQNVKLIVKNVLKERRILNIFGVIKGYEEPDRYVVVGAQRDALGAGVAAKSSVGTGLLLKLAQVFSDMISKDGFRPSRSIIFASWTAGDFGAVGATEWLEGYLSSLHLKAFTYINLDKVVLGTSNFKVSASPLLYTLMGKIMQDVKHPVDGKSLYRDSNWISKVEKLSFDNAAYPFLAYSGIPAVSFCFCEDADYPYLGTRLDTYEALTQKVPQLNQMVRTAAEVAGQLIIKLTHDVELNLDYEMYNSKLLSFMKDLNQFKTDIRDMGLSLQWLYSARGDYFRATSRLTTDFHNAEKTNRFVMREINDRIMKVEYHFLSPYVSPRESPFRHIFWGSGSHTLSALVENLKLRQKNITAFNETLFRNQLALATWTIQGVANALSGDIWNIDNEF
Chain of UniProt Q16774 (whole entry, unmodified, looked up): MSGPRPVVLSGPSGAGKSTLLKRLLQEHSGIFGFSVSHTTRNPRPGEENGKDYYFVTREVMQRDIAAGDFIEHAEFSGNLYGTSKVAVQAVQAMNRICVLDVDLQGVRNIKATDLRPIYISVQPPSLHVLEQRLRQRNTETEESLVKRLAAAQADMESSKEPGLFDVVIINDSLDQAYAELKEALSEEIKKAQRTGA
Chain of UniProt Q9UNE7 (whole entry, looked up): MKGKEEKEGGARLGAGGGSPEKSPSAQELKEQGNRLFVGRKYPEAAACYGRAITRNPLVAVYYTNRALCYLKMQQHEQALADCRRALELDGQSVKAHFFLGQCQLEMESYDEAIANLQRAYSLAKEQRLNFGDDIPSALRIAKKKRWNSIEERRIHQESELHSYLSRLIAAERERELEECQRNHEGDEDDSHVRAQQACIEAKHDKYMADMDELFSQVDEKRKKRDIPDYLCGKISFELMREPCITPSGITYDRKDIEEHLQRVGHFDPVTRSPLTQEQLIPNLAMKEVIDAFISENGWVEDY
Chain of UniProt P40337 (whole entry, unmodified, looked up): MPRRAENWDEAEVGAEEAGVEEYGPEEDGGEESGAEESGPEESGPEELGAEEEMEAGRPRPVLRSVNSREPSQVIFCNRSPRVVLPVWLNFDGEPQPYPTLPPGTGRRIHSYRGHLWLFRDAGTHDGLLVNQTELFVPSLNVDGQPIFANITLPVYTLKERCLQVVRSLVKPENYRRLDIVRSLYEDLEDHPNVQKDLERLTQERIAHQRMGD
Chain of UniProt Q92847 (whole entry, looked up): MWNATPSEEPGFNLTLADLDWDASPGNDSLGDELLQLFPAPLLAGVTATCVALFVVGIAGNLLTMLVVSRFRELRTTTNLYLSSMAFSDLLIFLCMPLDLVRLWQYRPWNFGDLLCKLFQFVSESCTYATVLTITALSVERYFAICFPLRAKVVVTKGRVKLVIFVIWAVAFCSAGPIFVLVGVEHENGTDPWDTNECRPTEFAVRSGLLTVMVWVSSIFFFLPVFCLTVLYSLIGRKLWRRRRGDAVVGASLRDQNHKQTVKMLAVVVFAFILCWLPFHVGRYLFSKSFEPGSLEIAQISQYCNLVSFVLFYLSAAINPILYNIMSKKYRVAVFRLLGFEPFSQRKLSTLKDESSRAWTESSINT
Chain of UniProt Q14416 (whole entry, looked up): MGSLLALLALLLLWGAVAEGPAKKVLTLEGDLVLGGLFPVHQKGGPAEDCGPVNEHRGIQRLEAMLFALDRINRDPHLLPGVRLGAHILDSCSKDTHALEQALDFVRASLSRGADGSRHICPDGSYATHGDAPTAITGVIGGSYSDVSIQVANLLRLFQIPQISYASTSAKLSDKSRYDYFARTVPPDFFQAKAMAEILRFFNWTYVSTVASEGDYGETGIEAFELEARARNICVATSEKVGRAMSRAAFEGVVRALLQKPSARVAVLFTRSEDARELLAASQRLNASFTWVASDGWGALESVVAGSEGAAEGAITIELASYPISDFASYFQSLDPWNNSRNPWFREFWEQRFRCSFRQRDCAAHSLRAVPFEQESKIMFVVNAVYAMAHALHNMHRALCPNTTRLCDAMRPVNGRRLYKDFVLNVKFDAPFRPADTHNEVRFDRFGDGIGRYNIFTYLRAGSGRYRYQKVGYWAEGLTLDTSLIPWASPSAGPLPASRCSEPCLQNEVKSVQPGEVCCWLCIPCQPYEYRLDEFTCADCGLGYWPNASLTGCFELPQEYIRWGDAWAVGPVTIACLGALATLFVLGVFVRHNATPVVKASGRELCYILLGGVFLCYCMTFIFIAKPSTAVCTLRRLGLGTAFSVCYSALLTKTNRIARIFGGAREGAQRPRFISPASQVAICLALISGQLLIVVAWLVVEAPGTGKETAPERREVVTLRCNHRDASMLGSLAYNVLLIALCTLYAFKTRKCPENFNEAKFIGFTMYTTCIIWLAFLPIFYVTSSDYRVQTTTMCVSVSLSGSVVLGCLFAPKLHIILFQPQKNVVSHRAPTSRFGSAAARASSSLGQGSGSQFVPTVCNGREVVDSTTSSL
Chain of UniProt Q93009 (whole entry, looked up): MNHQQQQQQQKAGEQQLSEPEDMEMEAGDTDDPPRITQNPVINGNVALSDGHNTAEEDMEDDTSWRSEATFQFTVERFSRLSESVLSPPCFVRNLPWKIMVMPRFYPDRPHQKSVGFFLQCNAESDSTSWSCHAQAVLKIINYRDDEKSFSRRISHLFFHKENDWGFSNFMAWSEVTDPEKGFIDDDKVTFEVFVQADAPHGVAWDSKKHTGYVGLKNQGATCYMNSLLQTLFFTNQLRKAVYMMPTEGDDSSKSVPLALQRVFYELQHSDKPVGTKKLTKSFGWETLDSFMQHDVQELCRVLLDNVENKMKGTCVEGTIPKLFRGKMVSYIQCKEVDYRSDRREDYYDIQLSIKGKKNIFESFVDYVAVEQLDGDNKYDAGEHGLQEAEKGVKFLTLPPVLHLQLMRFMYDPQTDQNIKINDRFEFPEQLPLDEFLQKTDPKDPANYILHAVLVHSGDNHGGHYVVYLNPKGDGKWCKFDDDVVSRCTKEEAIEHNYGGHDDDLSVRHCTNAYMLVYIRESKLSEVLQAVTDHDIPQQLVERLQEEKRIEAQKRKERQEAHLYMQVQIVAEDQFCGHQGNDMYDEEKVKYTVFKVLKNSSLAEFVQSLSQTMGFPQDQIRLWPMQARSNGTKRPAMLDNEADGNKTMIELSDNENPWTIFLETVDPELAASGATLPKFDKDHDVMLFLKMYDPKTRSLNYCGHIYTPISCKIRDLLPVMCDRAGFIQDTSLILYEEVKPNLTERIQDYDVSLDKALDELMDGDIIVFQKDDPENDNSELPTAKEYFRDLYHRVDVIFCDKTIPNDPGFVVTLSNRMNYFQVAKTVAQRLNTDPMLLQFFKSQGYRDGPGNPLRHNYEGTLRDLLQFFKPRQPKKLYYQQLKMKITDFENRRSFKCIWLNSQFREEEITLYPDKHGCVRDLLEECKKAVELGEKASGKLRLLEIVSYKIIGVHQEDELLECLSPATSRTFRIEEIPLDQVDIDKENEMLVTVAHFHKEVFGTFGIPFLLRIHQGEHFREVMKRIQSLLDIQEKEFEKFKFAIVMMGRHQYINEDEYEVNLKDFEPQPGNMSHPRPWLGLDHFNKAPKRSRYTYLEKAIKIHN
Chain of UniProt P14174 (whole entry, looked up): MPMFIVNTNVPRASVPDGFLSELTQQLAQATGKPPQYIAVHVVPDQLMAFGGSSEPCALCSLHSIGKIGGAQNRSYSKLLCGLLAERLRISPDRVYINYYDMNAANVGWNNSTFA

Compound | target | test | system | setting | scale | endpoint | result
CN(C)C(=O)C(CCN1CCC(O)(c2ccc(Cl)cc2)CC1)(c1ccccc1)c1ccccc1 | Calcium-activated potassium channel subunit alpha-1, with LRRC26 γ1 subunit (KCNMA1, Homo sapiens, UniProt Q12791) | ion current, inside-out patch, fit of G-V curve | BKα/γ1 channel | 10 µM, added: nominally 0 Ca2+ |  | V1/2 | -6.24 mV
CC(=O)N[C@H](C(=O)N1C[C@H](O)C[C@H]1C(=O)NCc1ccc(-c2scnc2C)cc1)C(C)(C)SCCCCCCNC(=O)C[C@@H]1N=C(c2ccc(Cl)cc2)c2c(sc(C)c2C)-n2c(C)nnc21 | BRD4/VHL, BD2; with elongins B/C (Homo sapiens, UniProt O60885+P40337, A384K/E383V/K378Q) | ITC |  | concentration not given, 25 °C, ternary complex, added: BRD4 BD2 |  | binding stoichiometry | 0.7 ± 0.06
O=C1c2ccccc2CCN1CCCCN1CCN(c2ccccn2)CC1 | HTR2C | radioligand binding |  | concentration not given, added: [3H]mesulergine |  | inhibition | 63%
C[C@@H](O)CNC(C)(C)CC(=O)N[C@@H]1CCc2ccccc2N(Cc2ccc(-c3ccccc3-c3nn[nH]n3)cc2)C1=O | Growth hormone secretagogue receptor type 1 (GHSR, Homo sapiens, UniProt Q92847) | β-arrestin 2 recruitment, NanoBiT | HEK293T |  |  | Emax | 92.4 ± 3.8%
CN(C(=O)n1cnc(-c2ccc[n+]([O-])c2)c1)C1CCCCC1 | Cholecystokinin receptor type A (CCKAR, Homo sapiens, UniProt P32238) |  |  | 10 µM |  | inhibition | 8.04%
O=C(Nc1cccc2c(=O)cc(-c3nnn[nH]3)oc12)c1ccc(OCCCCc2ccccc2)cc1 | LRRC8A/LRRC8C (Homo sapiens, UniProt Q8IWT6+Q8TDW0, L134K/L136K) | whole-cell patch clamp | HCT116 LRRC8-/- transfected | at -100 mV |  | Hill coefficient | 0.96
CC(=O)O[C@H]1C(=O)[C@@]2(C)[C@H]([C@H](OC(=O)c3ccccc3)[C@]3(O)C[C@H](OC(=O)[C@H](O)[C@@H](NC(=O)c4ccccc4)c4ccccc4)C(C)=C1C3(C)C)[C@]1(OC(C)=O)CO[C@@H]1C[C@@H]2O | Tubulin alpha-1A/beta chain (Sus scrofa, UniProt P02550+P02554) | inducer |  | 10 µM, 37 °C |  | tubulin polymerization time | ≤ 20 min
O=C(O)c1ccc(Nc2ncc3c(n2)-c2ccc(Cl)cc2C(c2c(F)cccc2F)=NC3)cc1 | HIPK1(h) | kinase activity |  | 1 µM |  | remaining activity | 117%
C[C@]12C[C@H](O)[C@H]3[C@@H](CCC4=CC(=O)CC[C@@]43C)[C@@H]1CC[C@@H]2C(=O)CO | Cytochrome P450 11B2, mitochondrial (CYP11B2, Homo sapiens, UniProt P19099) |  | nanodiscs | 25 °C, fast phase |  | koff | 8.6 ± 0.4 s⁻¹
CCN(CCO)CCCC(C)Nc1ccnc2cc(Cl)ccc12 (centres unmarked) | Sodium channel protein type 5 subunit alpha (SCN5A, Homo sapiens, UniProt Q14524) | sodium current |  | 300 µM |  | inactivation V1/2 | -90.5 ± 4.4 mV
Cc1ccc(OC[C@H]2CN(CCN3CCc4ccccc43)CCO2)cn1 | HTR2C | radioligand binding |  | concentration not given, added: [3H]mesulergine |  | inhibition | 1.6%
Cc1n[nH]c2ccc(-c3cc(OC[C@@H](N)Cc4ccccc4)cnc3-c3ccoc3)cc12 | Protein kinase C-like 1 (Candida albicans, UniProt P43057) | kinase binding, competitor, MIB/MS competition, item: PKC1 | Candida albicans cell lysate | 100 nM | reference: DMSO | log2 fold change | -0.235
CC1(C)CC2(C)OC(=O)NC2(C)c2ccccc21 (centres unmarked) | Histone acetyltransferase type B catalytic subunit (Homo sapiens, UniProt O14929) | binding, affinity selection mass spectrometry |  |  | reference: other proteins in batch | fold enrichment | 0.565
CN(C)Cc1ccc(-c2nc3cccc4c3n2CCNC4=O)cc1 | Tyrosyl-DNA phosphodiesterase 1 (TDP1, Homo sapiens, UniProt Q9NUW8) | binding, small molecule microarray |  | added: AF647-labelled TDP1 1 µM | direction not given | Z score | 3.54
O=C(O)[C@@H]1CCCN1c1ncnc2[nH]cnc12 (racemic) | STUB1 | binding, affinity selection mass spectrometry |  |  | reference: other proteins in batch | log fold enrichment | -0.0285
COC(=O)CC1CC(c2ccc(O)cc2)=NO1 (centres unmarked) | Macrophage migration inhibitory factor (MIF, Homo sapiens, UniProt P14174) | inhibitor, ELISA |  | up to 50 µM |  | binding inhibition | no inhibition
[O-][S+]1CCCCS1 (centres unmarked) | Superoxide dismutase [Cu-Zn] (SOD1, Homo sapiens, UniProt P00441, G94A) | LC-MS | human whole blood | 100 µM, 1 h, 37 °C |  | SOD1 monomer fraction | 69.7%
CC1CCCN(C(=O)c2cc3ncccn3n2)C1 (centres unmarked) | WD repeat-containing protein 55 (WDR55, Homo sapiens, UniProt Q9H6Y2) | binding, affinity selection mass spectrometry |  |  | reference: other proteins in batch | fold enrichment | 0.69
C[C@]12CC[C@@H]3c4ccc(O)cc4CC[C@H]3[C@@H]1CC[C@@H]2O | 17-beta-hydroxysteroid dehydrogenase 13 (Homo sapiens, UniProt Q7Z5P4) | substrate, NADH fluorescence |  |  |  | Vmax | 0.04 nM NADH/s/nM enzyme

Compound | target | test | system | setting | scale | endpoint | result
NCCS(=O)(=O)O | Sodium- and chloride-dependent taurine transporter (SLC6A6, Homo sapiens, UniProt P31641, Y138A) | binding, microscale thermophoresis |  | 15.6 µM, room temperature, added: 50 nM labelled protein | higher = more binding | normalised MST signal | 0.00185
Nc1ncnc2c1ncn2[C@@H]1O[C@H](COP(=O)(O)OP(=O)(O)O)[C@@H](O)[C@H]1O | GUK1 (Homo sapiens, UniProt Q16774) | binding, isothermal titration calorimetry |  | molar ratio 0.9041, fitted curve |  | ΔH | -1.57 kcal/mol
C=CC(=O)N1CCC(COCC(=O)N2CCN(c3nc(-c4cnc(N)nc4C(F)F)nc(N4CCOC[C@@H]4C)n3)CC2)CC1 | Ribosomal protein S6 kinase alpha-5, C-terminal kinase domain (RPS6KA5, Homo sapiens, UniProt O75582) | KINOMEscan |  | 1 µM |  | remaining binding | 100%
CC[C@@H](C)[C@@H](NC(=O)[C@@H](Cc1ccc(O)cc1)NC(=O)[C@H]1CCCN1C(=O)[C@@H](CCCNC(=N)N)NC(=O)[C@H](N)Cc1c[nH]cn1)C(=O)N[C@H](C)C(=O)N[C@H](Cc1c[nH]cn1)C(=O)N[C@H](CCCNC(=N)N)C(=O)N[C@@H](C(=O)N[C@H](Cc1ccc(O)cc1)C(=O)N[C@H](CO)C(=O)N[C@H](Cc1ccccc1)C(N)=O)C(C)C | Transferrin receptor protein 1 (Tfrc, Mus musculus, UniProt Q62351) | flow cytometry | B16 | 24 h, unit not given | reference: 0 h | surface expression | 0.53 and 0.55
O=C(C[C@@H](C(F)F)n1ccc(F)n1)N1CCC(O)(Cn2cnc3c(cnn3-c3ccc(F)cc3)c2=O)CC1 | Ubiquitin carboxyl-terminal hydrolase 7 (USP7, Homo sapiens, UniProt Q93009) | ITC |  | concentration not given, wild-type enzyme |  | binding enthalpy | -20.7 ± 0.127 kcal/mol
Nc1ccn([C@H]2C[C@H](O)[C@@H](COP(=O)(O)OP(=O)(O)OP(=O)(O)O)O2)c(=O)n1 | Gag-Pol polyprotein, reverse transcriptase (gag-pol, Human immunodeficiency virus type 1 group M subtype B, UniProt P04585) | nucleotide incorporation, substrate | HIV-1 | added: DNA template |  | Km | 0.025 µM
Nc1ncnc2c1ncn2[C@@H]1O[C@H](COP(=O)(O)OP(=O)(O)OP(=O)(O)O)[C@@H](O)[C@H]1O | P2X purinoceptor 7 (P2rx7, Rattus norvegicus, UniProt Q64663, I214A) | ion current, agonist, two-electrode voltage clamp | Xenopus laevis oocytes | 3.7 µM | reference: highest concentration response | normalized current | 0.0103 and 0.00978 and 0.0143
O=C(O)/C=C/C(=O)O | Uncharacterized protein (Pelagibacter ubique, UniProt Q4FKX4) | differential scanning fluorimetry | Candidatus Pelagibacter ubique | in-house screen |  | thermal shift | 7.11 °C
CC[C@@H]1[C@H](F)C(=O)N[C@@H]1COc1nccc2cc(C(N)=O)c(OC)cc12 | Tyrosine-protein kinase Fer (FER, Homo sapiens, UniProt P16591) | ATP-site probe binding, ActivX profiling | THP-1 cell lysate | 0.2 mM, Lys1 site |  | inhibition | -7.6%
CCCCC[C@H](O)/C=C/[C@H]1[C@H](O)CC(=O)[C@@H]1C/C=C\CCCC(=O)O | Prostaglandin E2 receptor EP1 subtype (PTGER1, Homo sapiens, UniProt P34995, G87A) | IP1 accumulation, agonist | AD293 | 1 h, EP1 G87A mutant |  | Emax | 92 ± 7.68%
Cc1ccnc(OC[C@H]2CN(CC(=O)N3CCc4ccccc43)CCO2)c1 | 5-hydroxytryptamine receptor 7 (HTR7, Homo sapiens, UniProt P34969) | radioligand binding |  | concentration not given, added: [3H]LSD |  | inhibition | -18.9%
COc1cc(NC(=O)c2ccccn2)ccc1/N=N/c1ccccc1Cl | Metabotropic glutamate receptor 2 (GRM2, Homo sapiens, UniProt Q14416) | positive allosteric modulator, IP accumulation | HEK293 | 30 µM, in the dark, added: low-dose orthosteric agonist |  | activation | 1.17%
[Na+] | Sodium- and chloride-dependent neutral and basic amino acid transporter B(0+), apo form (Slc6a14, Mus musculus, UniProt Q9JMA9) | pre-steady-state charge movement | Xenopus oocytes |  |  | Hill coefficient | 1.9
Nc1ccc2cc3ccc(N)cc3nc2c1 | Chymotrypsinogen A, activated (alpha-chymotrypsin) (Bos taurus, UniProt P00766) | isothermal titration calorimetry |  | concentration not given, 25 °C, added: 0.5 M sarcosine |  | entropic contribution TΔS° of binding | -20.2 ± 1.43 kcal/mol
COc1ccccc1N1CCN(CCCCN2CCc3ccccc3C2=O)CC1 | HTR2C | radioligand binding |  | concentration not given, added: [3H]mesulergine |  | inhibition | 77.2%
O=c1nc(SCc2cc(F)cc(C(F)(F)F)c2)nc(SCc2ccc3sccc3c2)[nH]1 | DNA topoisomerase 2-alpha (TOP2A, Homo sapiens, UniProt P11388) | DNA cleavage |  | 125 µM, added: etoposide 50 µM |  | linear DNA | 21.8%
CCN1CCC[C@H]1CNC(=O)c1c(O)c(Cl)cc(Cl)c1OC | Probable G-protein coupled receptor 162 (GPR162, Homo sapiens, UniProt Q16538) | β-arrestin recruitment, TANGO luminescence, item: GPR162 |  | concentration not given | reference: basal luminescence | log2 fold change | 0.53
Nc1nc2c(ncn2[C@@H]2O[C@H](COP(=O)(O)O)[C@@H](O)[C@H]2O)c(=O)[nH]1 | GUK1 (Homo sapiens, UniProt Q16774, R44A) | binding, ITC |  | added: GMP |  | -TΔS | 2.86 kcal/mol
Cc1cccc(N2CC(C(=O)O)CC2=O)c1 (centres unmarked) | STUB1 | binding, affinity selection mass spectrometry |  |  | reference: other proteins in batch | fold enrichment | 0.831
